# Published values of several laboratories.
# A part holds a random share of what one study measured. Substitutions count along the parent as printed.
# Chain of UniProt Q9BYP7 (whole entry, looked up): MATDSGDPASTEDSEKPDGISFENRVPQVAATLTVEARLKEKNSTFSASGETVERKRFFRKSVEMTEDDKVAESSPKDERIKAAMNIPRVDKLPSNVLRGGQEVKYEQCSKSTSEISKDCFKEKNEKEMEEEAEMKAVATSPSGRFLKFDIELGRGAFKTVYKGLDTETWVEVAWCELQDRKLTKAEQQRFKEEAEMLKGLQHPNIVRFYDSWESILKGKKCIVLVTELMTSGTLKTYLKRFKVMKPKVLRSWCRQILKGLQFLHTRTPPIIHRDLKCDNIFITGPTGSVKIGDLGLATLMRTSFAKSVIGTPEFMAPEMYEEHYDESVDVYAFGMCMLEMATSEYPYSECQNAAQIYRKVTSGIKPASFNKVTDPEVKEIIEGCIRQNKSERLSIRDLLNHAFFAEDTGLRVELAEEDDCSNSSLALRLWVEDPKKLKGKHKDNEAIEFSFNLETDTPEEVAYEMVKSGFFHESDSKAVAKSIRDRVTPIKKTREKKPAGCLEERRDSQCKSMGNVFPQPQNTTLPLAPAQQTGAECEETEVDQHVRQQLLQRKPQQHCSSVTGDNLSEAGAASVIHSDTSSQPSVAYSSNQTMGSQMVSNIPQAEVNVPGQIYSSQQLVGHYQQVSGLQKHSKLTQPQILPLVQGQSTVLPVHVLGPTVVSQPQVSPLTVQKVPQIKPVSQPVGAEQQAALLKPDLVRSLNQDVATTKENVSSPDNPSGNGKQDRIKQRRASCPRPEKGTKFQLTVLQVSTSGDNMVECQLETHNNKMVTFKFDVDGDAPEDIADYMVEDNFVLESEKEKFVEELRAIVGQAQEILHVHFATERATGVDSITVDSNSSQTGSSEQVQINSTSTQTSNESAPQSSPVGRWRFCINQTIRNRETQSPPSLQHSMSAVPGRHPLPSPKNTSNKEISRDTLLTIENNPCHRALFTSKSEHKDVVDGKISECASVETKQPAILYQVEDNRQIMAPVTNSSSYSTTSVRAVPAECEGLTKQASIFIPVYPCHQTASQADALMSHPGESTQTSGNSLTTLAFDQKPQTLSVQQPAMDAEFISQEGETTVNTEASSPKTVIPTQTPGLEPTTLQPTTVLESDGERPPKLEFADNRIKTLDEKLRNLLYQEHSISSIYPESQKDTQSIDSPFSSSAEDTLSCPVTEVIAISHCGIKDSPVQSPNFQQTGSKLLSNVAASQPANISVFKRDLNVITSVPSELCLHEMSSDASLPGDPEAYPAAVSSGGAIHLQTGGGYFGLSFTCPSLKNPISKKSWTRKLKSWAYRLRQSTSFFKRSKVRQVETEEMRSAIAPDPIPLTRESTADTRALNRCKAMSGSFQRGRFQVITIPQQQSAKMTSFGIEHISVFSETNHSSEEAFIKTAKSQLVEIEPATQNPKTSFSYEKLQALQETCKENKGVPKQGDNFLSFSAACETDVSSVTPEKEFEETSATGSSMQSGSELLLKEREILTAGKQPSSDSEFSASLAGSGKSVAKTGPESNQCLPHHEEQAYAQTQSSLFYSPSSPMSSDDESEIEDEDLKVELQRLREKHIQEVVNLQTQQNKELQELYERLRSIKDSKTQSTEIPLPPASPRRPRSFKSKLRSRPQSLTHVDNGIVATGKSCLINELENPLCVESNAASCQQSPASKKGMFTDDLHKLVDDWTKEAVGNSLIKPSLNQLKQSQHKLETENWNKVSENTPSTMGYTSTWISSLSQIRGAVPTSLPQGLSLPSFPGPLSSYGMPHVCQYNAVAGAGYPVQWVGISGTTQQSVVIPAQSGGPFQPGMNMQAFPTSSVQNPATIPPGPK

# Sample 1
# Target: FOSB, bZIP domain (human)
# Method: DHFR protein complementation
# Matrix: yeast
# Setting: single substitutions, most at no-binding floor
# Reference: wild-type JUN-FOS pair
# Reading: higher = stronger binding
# Starting sequence: JUN, bZIP domain (human); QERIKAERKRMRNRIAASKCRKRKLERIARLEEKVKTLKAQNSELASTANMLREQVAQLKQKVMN; partner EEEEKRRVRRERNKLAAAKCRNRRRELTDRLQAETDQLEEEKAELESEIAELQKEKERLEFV
Substitution,binding fitness [natural log]
V56G,-1.19
R30H,0.0706
A40Y,-0.314
Q41A,-0.163
S47A,0.0458
M51V,-0.0824
S43F,-0.163
A29M,-0.468

# Sample 2
# Target: ABI1, truncated, D143A, DHFR fusion (Arabidopsis thaliana, UniProt P49597)
# Method: DHFR PCA, dose-response
# Matrix: yeast
# Setting: Hill fit, not affinity
# Added: (+)-ABA, dose series
# Reading: lower = more sensitive
# Starting sequence: PYL1, truncated, DHFR fusion (Arabidopsis thaliana, UniProt Q8VZS8); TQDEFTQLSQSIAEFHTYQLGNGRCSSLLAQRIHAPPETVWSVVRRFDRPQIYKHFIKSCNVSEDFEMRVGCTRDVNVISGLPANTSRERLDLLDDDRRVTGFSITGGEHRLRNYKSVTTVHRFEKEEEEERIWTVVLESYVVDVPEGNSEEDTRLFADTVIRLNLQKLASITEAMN
Substitution,ABA EC50 [µM]
H110N,22.6
F124I,2.65
E129G,2.29
G108L,2500
R123K,2.13
T120Y,1110

# Sample 3
# Target: Fragile X messenger ribonucleoprotein 1, C-terminal low-complexity region (Fmr1, Mus musculus, UniProt P35922)
# Method: RNA Bind-n-Seq
# Form: RNA
# Matrix: in vitro
# Tested at: 200 nM
# Setting: whole 134-nt RNA, ends assumed
# Added: 150 mM LiCl
# Reference: input library
# Reading: higher = stronger binding
# All molecules: 7-deaza-guanosine replaces G
# Constant ends, left off below: GGGAGUUCUACAGUCCGACGAUC … UGGAAUUCUCGGGUGUCAAGG
Oligonucleotide,log2 enrichment
UCCUGUGCUACACAUCGUAUGUACCGAAUCGGGAAAGGGUUUUUUUGGGAAAAAAAGGGAAAGUAUUAUGUUACGCCGUUCGGAUCUGCA,-1.14
UCCUGUGCUACACAUCGUAUGUACCGAAUCGGGAAAAAAAGGGUUUGGGAAAAAAAGGGAAAGUAUUAUGUUACGCCGUUCGGAUCUGCA,-1.49
UGAAAUGUUUUUUUCUCUGUCUUCUUUCAGGUCUUUGUUGAGUAUGCAAAUGCUGGUGAUUCCAAAGCUGCGCAGAAAUUACUGACUGGA,-1.95
CAAGUCCUGUGCUACACAUCGUAUGUACCGAAUCGGGUUUGGGAGGGAAAAAGGGAAAGUAUUAUGUUACGCCGUUCGGAUCUGCACUUC,-0.696
UGGGAGGUGGAUUUUGUUUAUUUUUUUAGCUCAUUUCCAGGGGUGGGAAUUUUUUUUUAAUAUGUGUCAUGAAGAAAGUUGUUUUUGAAA,-0.00087
UCCUGUGCUACACAUCGUAUGUACCGAAUCGGGUUUUUUGGUUUUUUGGGGUUUUUUGGGAAAGUAUUAUGUUACGCCGUUCGGAUCUGC,-0.63
UUCGAAGAGGUUGUGUACCAGGCCAUGGGUGAGUGCCCGGGCCACCGAGGCCACGUGCCUCCACGAGGGGCUGCCUAUGCCCCACCCUGG,-0.195
AAGUCCUGUGCUACACAUCGUAUGUACCGAAUCGGUUUUUGGUUUUUUUGGUUUGGAAAGUAUUAUGUUACGCCGUUCGGAUCUGCACUU,-2.57

# Further values, each from its own experiment
Compound,target,effect on,action,tested at,reference,quantity,value
Cc1cncc2cccc(S(=O)(=O)N3CCCN(C(=O)CN)C[C@@H]3C)c12,"Serine/threonine-protein kinase WNK3 (WNK3, Homo sapiens, UniProt Q9BYP7)",enzyme activity,inhibitor,0.5 µM,control,remaining activity,97.3%

# A few entries again (sample 3):
Oligonucleotide,log2 enrichment
CAAGUCCUGUGCUACACAUCGUAUGUACCGAAUCGGGUUUGGGAGGGAAAAAGGGAAAGUAUUAUGUUACGCCGUUCGGAUCUGCACUUC,-0.696
UCCUGUGCUACACAUCGUAUGUACCGAAUCGGGAAAGGGUUUUUUUGGGAAAAAAAGGGAAAGUAUUAUGUUACGCCGUUCGGAUCUGCA,-1.14
